# Assay results collected from several papers.
# Each line is one published result; not all experiments were run side by side. ± gives the spread as reported.
SMILES,cell line,test,conditions,scale,endpoint,value
O=C1CCC(N2Cc3cc(-c4nc5ccccn5c4Nc4ccc5c(c4)OCCO5)ccc3C2=O)C(=O)N1 (stereo not drawn),MOLT-4,"cell viability, CellTiter-Glo",72 h,,EC50,0.005 µM
Cc1ccccc1OCCCSCc1nc2ccccc2[nH]1,SW620-GFP tumour organoids,"cytotoxicity, 3D CellTiter-Glo",72 h,,IC50,29.7 µM
COC(=O)[C@@H]1C(C=Nc2cc(C)ccc2O)=Cc2cc3c(cc2[C@H]1c1cc(OC)c(OC)c(OC)c1)OCO3,HepG2,Alamar Blue,48 h,,CC50,> 100 µM
Cc1cc(SCc2sc(-c3cccnc3)nc2C)ccc1OCC(=O)O,HEK293T,,18 h,,CC50,> 100 µM
CN(C(=O)CSc1nnc(Nc2ccccc2F)s1)c1ccccc1,Jurkat,MTS,,,concentration reducing viability,≥ 30 µM
CC(C)OC(=O)CCC(C(=O)/C=C/c1ccc(O)c(OC(F)(F)F)c1)C(=O)/C=C/c1ccc(O)c(OC(F)(F)F)c1,SH-SY5Y,MTT,"0.9 µM, 24 h",,viability,90.9 ± 0.8%
COc1cc([C@@H]2c3cc4c(cc3[C@H](C=C(C)C)[C@H]3COC(=O)[C@H]23)OCO4)cc(OC)c1OC,HepG2,Alamar Blue,48 h,,CC50,33.1 ± 2.1 µM
Cc1nc(-c2ccc(C(F)(F)F)cc2)sc1COc1ccc(CCC(=O)O)cc1,HEK293T,,18 h,,CC50,> 100 µM
COC(=O)[C@@H]1C(c2nc3ccccc3o2)=Cc2cc3c(cc2[C@H]1c1cc(OC)c(OC)c(OC)c1)OCO3,HepG2,Alamar Blue,48 h,,CC50,8.8 ± 0.3 µM
Cc1cc(SCc2sc(-c3cc(F)c(F)c(F)c3)nc2C)ccc1OCC(=O)O,HEK293T,,18 h,,CC50,> 100 µM
O=C(/C=C/c1ccc(O)c(OC(F)(F)F)c1)C1=C(/C=C/c2ccc(O)c(OC(F)(F)F)c2)OCCC1,SH-SY5Y,MTT,"0.9 µM, 24 h",,viability,95.9 ± 3.1%
C[N+](C)=c1ccc2c(-c3ccccc3)c3cc4c5c(c3[se]c-2c1)CCCN5CCC4,MDCKII-MDR1,,,relative to: without inhibitor over with inhibitor,efflux ratio,17
Cc1ccc(-c2nc(C)c(CSc3ccc(OCC(=O)O)c(C)c3)s2)cc1,HEK293T,,18 h,,CC50,> 80 µM
COC(=O)[C@@H]1C(C=Nc2cncnc2NC(C)=O)=Cc2cc3c(cc2[C@H]1c1cc(OC)c(OC)c(OC)c1)OCO3,HepG2,Alamar Blue,48 h,,CC50,1.5 ± 0.1 µM
NC(=O)c1ccc(-n2cccc2Cc2ccccc2F)cc1N[C@H]1CC[C@H](O)CC1,MDA-MB-231,,"25 µM, 72 h",,viability,> 95%
CCOc1ccccc1Nc1nnc(SCC(=O)Nc2cc(F)ccc2F)s1,HS27,cytotoxicity,,,IC50,> 100 µM
CC(C)(C)OC(=O)CCC(C(=O)/C=C/c1ccc(O)c(OC(F)(F)F)c1)C(=O)/C=C/c1ccc(O)c(OC(F)(F)F)c1,SH-SY5Y,MTT,"0.9 µM, 24 h",,viability,84.5 ± 1.7%
Cc1nc(-c2ccc(C(F)(F)F)cc2)sc1CSc1ccc(CCC(=O)O)cc1,HEK293T,,18 h,,CC50,> 100 µM
COc1cc([C@@H]2c3cc4c(cc3C=C(C=O)[C@H]2C(=O)OCc2ccc(CBr)cc2)OCO4)cc(OC)c1OC,HepG2,Alamar Blue,48 h,,CC50,18.5 ± 0.7 µM
CC(C)(C(=O)/C=C/c1ccc(O)c(OC(F)(F)F)c1)C(=O)/C=C/c1ccc(O)c(OC(F)(F)F)c1,SH-SY5Y,MTT,"0.9 µM, 24 h",,viability,94.1 ± 2.2%
Cc1n[nH]c(C)c1CCOC(=O)c1cccc2c1oc(=O)n2C,Jurkat,MTS,up to 100 µM,,viability,> 90%
COc1cc([C@@H]2c3cc4c(cc3[C@@H](OC3CCCCC3)[C@H]3COC(=O)[C@H]23)OCO4)cc(OC)c1OC,mouse splenocytes uninfected,Alamar Blue,48 h,,CC50,11.4 ± 2 µM
O=C1Nc2cccc(C#CC3(O)CCNCC3)c2/C1=C/c1cc2ccccc2[nH]1,C8161.9 melanoma cells,,"concentration not given, several days",,viability,no effect
COCOCCCC(C(=O)/C=C/c1ccc(O)c(OC(F)(F)F)c1)C(=O)/C=C/c1ccc(O)c(OC(F)(F)F)c1,SH-SY5Y,MTT,"0.9 µM, 24 h",,viability,89 ± 12.7%
CCOc1ccc(S(=O)(=O)NC(=O)Cc2ccc(I)cc2)cc1Br,THP1-Dual,ATP luminescence,100 µM,,viability decrease,~20%
COc1cc([C@@H]2c3cc4c(cc3[C@H](CC(C)C)[C@H]3COC(=O)[C@H]23)OCO4)cc(OC)c1OC,HepG2,Alamar Blue,48 h,,CC50,> 100 µM
COCOc1ccc(/C=C/C(=O)C(CCC(=O)OC)C(=O)/C=C/c2ccc(OCOC)c(OC(F)(F)F)c2)cc1OC(F)(F)F,SH-SY5Y,MTT,"0.9 µM, 24 h",,viability,96.7 ± 1.7%
Cc1cc(SCc2sc(-c3ccc(C(F)(F)F)cc3Cl)nc2C)ccc1OCC(=O)O,HEK293T,,18 h,,CC50,> 50 µM
CCOC(=O)CCC(C(=O)/C=C/c1ccc(O)c(OC(F)(F)F)c1)C(=O)/C=C/c1ccc(O)c(OC(F)(F)F)c1,SH-SY5Y,MTT,"0.9 µM, 24 h",,viability,96.2 ± 2.9%
Cc1cc(SCc2sc(-c3ccc(N(C)C)cc3)nc2C)ccc1OCC(=O)O,HEK293T,,18 h,,CC50,> 50 µM
O=C(/C=C/c1ccc(O)c(OC(F)(F)F)c1)C(CCOCCOC1CCCCO1)C(=O)/C=C/c1ccc(O)c(OC(F)(F)F)c1 (stereo not drawn),SH-SY5Y,MTT,"0.9 µM, 24 h",,viability,94.2 ± 4.1%
COC(=O)[C@@H]1C(C=Nc2ccccc2O)=Cc2cc3c(cc2[C@H]1c1cc(OC)c(OC)c(OC)c1)OCO3,HepG2,Alamar Blue,48 h,,CC50,1.1 µM
Cc1cc(SCc2sc(-c3ccc4ccn(C)c4c3)nc2C)ccc1OCC(=O)O,HEK293T,,18 h,,CC50,> 100 µM

# Repeated from above:
SMILES,cell line,test,conditions,scale,endpoint,value
O=C(/C=C/c1ccc(O)c(OC(F)(F)F)c1)C1=C(/C=C/c2ccc(O)c(OC(F)(F)F)c2)OCCC1,SH-SY5Y,MTT,"0.9 µM, 24 h",,viability,95.9 ± 3.1%
C[N+](C)=c1ccc2c(-c3ccccc3)c3cc4c5c(c3[se]c-2c1)CCCN5CCC4,MDCKII-MDR1,,,relative to: without inhibitor over with inhibitor,efflux ratio,17
Cc1ccc(-c2nc(C)c(CSc3ccc(OCC(=O)O)c(C)c3)s2)cc1,HEK293T,,18 h,,CC50,> 80 µM
